Published values of several laboratories.
Lines come from different studies, so protocols differ. ± marks the error that the study gave.
Target: Acetylcholinesterase (ache, Electrophorus electricus, UniProt O42275)
Sequence of UniProt O42275 (whole entry, looked up): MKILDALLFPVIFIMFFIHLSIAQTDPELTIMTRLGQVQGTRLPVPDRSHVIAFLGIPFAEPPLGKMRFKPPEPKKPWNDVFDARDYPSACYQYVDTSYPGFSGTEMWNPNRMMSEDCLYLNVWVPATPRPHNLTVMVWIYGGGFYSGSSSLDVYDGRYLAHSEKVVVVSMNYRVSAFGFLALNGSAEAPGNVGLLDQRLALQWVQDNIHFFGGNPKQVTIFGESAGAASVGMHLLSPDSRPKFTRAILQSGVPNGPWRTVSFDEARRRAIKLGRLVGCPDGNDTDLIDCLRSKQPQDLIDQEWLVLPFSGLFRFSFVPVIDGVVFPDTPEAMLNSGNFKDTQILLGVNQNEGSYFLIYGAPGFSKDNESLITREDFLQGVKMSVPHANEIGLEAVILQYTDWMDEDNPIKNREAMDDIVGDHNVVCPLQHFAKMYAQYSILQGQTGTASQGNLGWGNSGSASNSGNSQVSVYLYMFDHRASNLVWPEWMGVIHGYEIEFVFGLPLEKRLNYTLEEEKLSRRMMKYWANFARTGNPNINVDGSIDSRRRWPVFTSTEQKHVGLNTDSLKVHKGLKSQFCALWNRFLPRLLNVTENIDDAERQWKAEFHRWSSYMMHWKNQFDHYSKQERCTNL
Observed: enzyme activity
Mode: inhibitor

Structure (SMILES)	method	pH	IC50
CCc1nc2ccc(C(=O)NCCN3CCOCC3)cn2c1N(C)C(=O)C1CCCCC1	Ellman	–	7340 nM
O=C(O)C(/C=C/c1c(Cl)cccc1Cl)=N\Nc1nc(-c2ccc([N+](=O)[O-])cc2)cs1	Ellman	–	865 nM
O=S(=O)(CCc1cn(-c2cnc3ccccc3c2)nn1)NCCc1c[nH]c2ccc(Cl)cc12	Ellman	–	104 nM
O=[N+]([O-])c1ccc(S(=O)(=O)Oc2ccc(/C=N/NS(=O)(=O)c3cc(Cl)ccc3Cl)cc2)cc1	Ellman	–	72.1 nM
COc1cc2c(cc1OC)CN(S(=O)(=O)CCc1cn(-c3cc(C)cc(C)c3)nn1)CC2	Ellman	–	42 nM
CCN(C)C(=O)Oc1ccc(/C=C/C(=O)N2CCc3ccccc3C2)cc1OC	Ellman	–	12300 nM
COc1ccc2[nH]cc(CCNS(=O)(=O)CCc3cn(-c4cc(C)cc(C)c4)nn3)c2c1	Ellman	–	26 nM
CNC(=O)c1cccc(-c2ccc3ncc(-c4cccc(C(=O)NCCN(C)C)c4)n3n2)c1	Ellman	–	15400 nM
O=S(=O)(N/N=C/c1ccc(OS(=O)(=O)c2ccc(Br)cc2)cc1)c1ccc(Cl)cc1	Ellman	–	12.6 nM
C=CCNc1nc2cc(-c3ccc(OCCCNC)nc3)sc2c(=O)n1C	–	–	200 ± 60 nM
O=S(=O)(N/N=C/c1ccc(OS(=O)(=O)c2ccccc2)cc1)c1ccc(Cl)cc1	Ellman	–	35.2 nM
O=C(O)C(/C=C/c1ccc(Cl)cc1)=N\Nc1nc(-c2ccc(F)cc2)cs1	Ellman	–	954 nM
O=S(=O)(N/N=C/c1ccc(OS(=O)(=O)c2ccccc2)cc1)c1cc(Cl)ccc1Cl	Ellman	–	5.33 nM
CCc1nc2ccc(C(=O)NCCOc3ccc(OC)cc3)cn2c1N(C)Cc1ccc(OC)cc1	Ellman	–	3370 nM
O=C(O)C(/C=C/c1ccc(Cl)cc1)=N\Nc1nc(-c2ccc([N+](=O)[O-])cc2)cs1	Ellman	–	1150 nM
O=S(=O)(N/N=C/c1ccc(OS(=O)(=O)c2ccc(Cl)cc2)cc1)c1cc(Cl)ccc1Cl	Ellman	–	55.9 nM
CCCCc1nc2ccc(/N=N/c3ccc(Cl)cc3)cc2c(-c2ccccc2)c1I	Ellman	pH 7.4	6170 nM
CCc1nc2ccc(C(=O)NCCCN(C)C)cn2c1N(C)Cc1cccs1	–	–	3710 ± 14000 nM
O=C(O)C(/C=C/c1ccc(Cl)cc1)=N\Nc1nc(-c2ccc(Br)cc2)cs1	Ellman	–	117 nM
CCc1nc2ccc(C(=O)NCCCn3ccnc3)cn2c1N(C)Cc1ccc(N(C)C)cc1	Ellman	–	3560 nM
O=S(=O)(N/N=C/c1ccc(OS(=O)(=O)c2ccc(Cl)cc2)cc1)c1ccc(Cl)cc1	Ellman	–	84.4 nM

Repeated from above:
Structure (SMILES)	method	pH	IC50
COc1ccc2[nH]cc(CCNS(=O)(=O)CCc3cn(-c4cc(C)cc(C)c4)nn3)c2c1	Ellman	–	26 nM
CNC(=O)c1cccc(-c2ccc3ncc(-c4cccc(C(=O)NCCN(C)C)c4)n3n2)c1	Ellman	–	15400 nM
O=S(=O)(N/N=C/c1ccc(OS(=O)(=O)c2ccc(Br)cc2)cc1)c1ccc(Cl)cc1	Ellman	–	12.6 nM
